Assay results from different studies.
Each numbered part is a random draw from the data of one study; scales do not carry over between parts.

Block 1 — method: protein binding microarray; molecule type: double-stranded DNA, one strand shown; medium: in vitro; tested at: not given; baseline: not given; reading: higher = stronger binding; endpoint: E-score
Target: Histone acetyltransferase KAT6A, winged helix 1, GST fusion (KAT6A, Homo sapiens, UniProt Q92794, residues 1-85)
Setting: 8-mer, flanks averaged, mean of 2 arrays, mostly near background
Target sequence (chain): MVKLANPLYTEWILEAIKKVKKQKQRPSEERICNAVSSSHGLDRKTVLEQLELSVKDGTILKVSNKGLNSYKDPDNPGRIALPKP
TCGTTACA: -0.0502
GGACAAGA: 0.0742
AATTGTTG: -0.251
CATTGCTA: -0.142
GAGGCACC: 0.101
GTTGTCAA: -0.0793
GAGATGAA: -0.139
CTTCTACA: -0.208
AATGGTTA: -0.102
GCAGGTCC: -0.04
AGCGGGGG: 0.176
CGAACCAC: 0.0748
GATTGTCC: 0.0283
TATGTCCA: -0.0693
GGATATAA: -0.257
ACGCCAAC: 0.0153
ATGCCTAG: -0.0642
CGATTCAA: -0.1
CACTGCAC: -0.133
AGAACTAA: -0.118
CACTGGAC: -0.0585
GTCGAGAC: -0.0334

Block 2 — method: RNA Bind-n-Seq; molecule type: RNA; medium: in vitro; tested at: 365 nM; baseline: no-protein control; reading: higher = stronger binding; endpoint: RBNS enrichment (R)
Target: RNA binding protein fox-1 homolog 2, RRM domain, GST-SBP tag (RBFOX2, Homo sapiens, UniProt O43251-10, residues 100-194)
Setting: natural RNA segment, single round, ends assumed
Constant ends, left off below: GGGAGUUCUACAGUCCGACGAUC … UGGAAUUCUCGGGUGCCAA
Target sequence (chain): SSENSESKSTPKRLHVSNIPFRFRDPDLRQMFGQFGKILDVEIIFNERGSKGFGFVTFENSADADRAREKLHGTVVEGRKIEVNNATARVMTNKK
UGCCUCCUGCCCCUCCUGGAGUUCAGCUCCUCCUCUGCCGUGGCCCGUGUCUGUCUGGCUCAUCCUUUCUCCUGCCCAGCCUCACACCUGAUCUCCCUUUCCUGUAGACU: 0.638
CUUGUUUGAAACAAUGCUUGACAAUUCAGAAAUUAACCACUGAUGUGCUGUGGAAUGUGAUGCUUGUCCUCAUAUAGUCUCAGUUUCUCUUUUUAUGCAGAUAUUUGUGA: 0.781
UGCACCAGAGCAUCUCAGCAGGCAGGCAUUUUGUGGCAUUUAUGGCCUGUCACUCCCUGUAUUUCUCCCUCCAUCCAGAGCUCGCUCCACACUCCUGCUCACCCAGCAAG: 0.866
UCAUCCUAGGAUAGCUUCCUGGAAGCAGAACCAAGAAGCCAGAAGGUUCUUCCUAGGGUGGCCUUGGCUCCCUGAAGGAAUCUGAAAUGCUGACCCUGUCACAACCUCCC: 0.287
ACCUUAGGUGGGCACAGGAGGGCCGAGCUUGUUUCUACCCACUGGCAGCUGCUGACUCAACUCUGGGCUCCCUGCCAUCUGUGGAGUACUUUUUUCCUGUUGUGUUGAAU: 0.593
AGCCUUCUCCCCCUCCACUCUCUGCCUGUAGGAUGUACUGUAUGUAGUCAUGCACUUUGUAUUAAUAUAUUAGAAAUCUACAGAUCUGUUUUGUACUUUUUAUACUGUUG: 1.25
GCUCUUGGAAAAGAGGUUUUCUUUUCUAAGCCGCCGUUCGUGACCUCUGACCUCUGGUUCUAUUUUGGUAAGCUCCCAGCAGACACUUCCAAGUCUUGUACCAAGGGCAG: 0.218
UGGCCUGUACCAUAUUAUGGAGAACUGUUAACUGCUUAAUUGGGUAAUUUUCAAAGAAAGUGAUGUUUGUUAAAUGGGGCGAAAUAAGAAGUUAAAUUUGAAAGUGAAUG: 0.937

Block 3 — organism: Saccharomyces cerevisiae; read-out: binding; method: competitive growth deep sequencing; molecule type: peptide; strain: cyclin E1-Cln2 fusion strain; setting: peptide tiling library; reading: direction not given; endpoint: enrichment score
KPITLDTTDFQESFVT: 0.646
LKGRRLVFDN: -0.796
SDSTVTKLDFDLEP: 1.36
ESSTVSEEDYFSSHRD: 1.22
RVSGLLSWTLSRVLWL: -0.558
VLLKRLQDVVSERANH: -0.768
KRRLDLETDHQY: 0.959
RDLFDCDFGDLTPLDF: 1.88
PLRKAKRARLCSSSSS: 1.81
CFRCLLFSFSGRSGVE: -1.17
ALLRRLQDVANDRGSH: -1.54
TRRRLFVENDSP: 2.67

Block 4 — method: competition protein-binding microarray; molecule type: double-stranded DNA, one strand shown; medium: in vitro; tested at: 2 µM; added: Cbf1 competitor, 0.05 µM; reading: higher = stronger binding; endpoint: fluorescence intensity; constant ends, left off below: … GTCTTGATTCGCTTGACGCTGCTG
Target: Phosphate system positive regulatory protein PHO4, full length, GST-tagged (PHO4, Saccharomyces cerevisiae, UniProt P07270, residues 1-312)
Setting: whole 60-bp probe, lowest competitor level
Residues (chain): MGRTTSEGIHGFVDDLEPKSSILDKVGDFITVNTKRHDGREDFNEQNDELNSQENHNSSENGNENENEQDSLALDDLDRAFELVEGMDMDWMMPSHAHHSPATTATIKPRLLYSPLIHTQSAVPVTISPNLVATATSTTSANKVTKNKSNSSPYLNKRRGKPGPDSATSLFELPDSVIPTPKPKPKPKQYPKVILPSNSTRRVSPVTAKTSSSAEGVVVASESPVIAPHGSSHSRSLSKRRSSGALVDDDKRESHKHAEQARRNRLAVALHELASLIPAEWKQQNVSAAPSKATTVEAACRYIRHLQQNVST
GTTATTCTCTAGTGTTTCGTGCTAAAATAACCGAGT: 6370 a.u.
GTCCCACACTACTGGCACGTTTTCTTGATTTTTGTC: 14900 a.u.
CTTCTGTAAATTTGCCGAGTGGGTGGACGCGCCCCG: 4140 a.u.
GCCATCTGTCGGCCACACTTTGAGCAACAACTACAA: 4700 a.u.
GTCTTGTCTCATTGGGGTGTGGGTGTCCCCACTTCA: 7300 a.u.
CGTCCTAGTGATTTTCACGTGTAGTCCATGAGGAAG: 11900 a.u.
TTGGCGCACTTACAGGACCTGACGACTTTGCCCCCG: 3360 a.u.
AAAGATTTGCCTTTGCCCGTGCCGAAAGCAGGCTGT: 7430 a.u.
TCCGGGTTATACCATCACGTGATGGTAAATCCAAAT: 14700 a.u.
CGGGGTTAAGTTTTTCACGTGTGCTGCTTGCAGCAG: 11800 a.u.
CCTTTCCAGATGGCTCACATGTCCGGTCGTCCTCCA: 7370 a.u.

For quick reference, copied from above (block 2):
UGCACCAGAGCAUCUCAGCAGGCAGGCAUUUUGUGGCAUUUAUGGCCUGUCACUCCCUGUAUUUCUCCCUCCAUCCAGAGCUCGCUCCACACUCCUGCUCACCCAGCAAG: 0.866
UGCCUCCUGCCCCUCCUGGAGUUCAGCUCCUCCUCUGCCGUGGCCCGUGUCUGUCUGGCUCAUCCUUUCUCCUGCCCAGCCUCACACCUGAUCUCCCUUUCCUGUAGACU: 0.638
UCAUCCUAGGAUAGCUUCCUGGAAGCAGAACCAAGAAGCCAGAAGGUUCUUCCUAGGGUGGCCUUGGCUCCCUGAAGGAAUCUGAAAUGCUGACCCUGUCACAACCUCCC: 0.287
GCUCUUGGAAAAGAGGUUUUCUUUUCUAAGCCGCCGUUCGUGACCUCUGACCUCUGGUUCUAUUUUGGUAAGCUCCCAGCAGACACUUCCAAGUCUUGUACCAAGGGCAG: 0.218
